Published values pooled from the literature.
Parts stem from different laboratories: compare values within a part only. Substitutions count along the parent as printed.

Series 1
Target: RNA binding protein fox-1 homolog 2, RRM domain, GST-SBP tag (RBFOX2, Homo sapiens, UniProt O43251-10, residues 100-194)
Technique: RNA Bind-n-Seq
Form: RNA
Sample: in vitro
Concentration: 365 nM
Notes: natural RNA segment, single round, ends assumed
Reference: no-protein control
Direction: higher = stronger binding
All sequences stand within: GGGAGUUCUACAGUCCGACGAUC … UGGAAUUCUCGGGUGCCAA
Target sequence (chain): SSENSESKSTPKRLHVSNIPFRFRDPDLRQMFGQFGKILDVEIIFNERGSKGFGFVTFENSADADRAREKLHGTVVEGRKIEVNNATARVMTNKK
For `CCUGGUGACGGGUGUCCAAGAAGCGGUUUCCUUGGGAGCUUCUGCCUCCGUGGGCCUCUCAGCCCGCCCCGUGUGGCCGCCCGGGUGUGGCUCAGCCAUGUCCCCUCCCC`, “RBNS enrichment (R)” read 0.254.
Under “RBNS enrichment (R)”, `AACAUCAGGAAGUUAAUUUGGCUGGCAAAAUUCUAGGGAAACUUGGCCAGAAAACUGGUGUUGAAGGCUUUUGCUCAUAUAAACAAGUGCCAUUGAGUUUCAAAUGACCA` is recorded as 0.362.
`UCAAACCCCGACCACCUGCCCAACCUGCUCUCCUCUUGCCACUGCCUCUUCCUCCCUCAUUCCACCUUCCCAUGCCCUGGAUCCAUCAGGCCACUUGAUGACCCCCAACC` — result for “RBNS enrichment (R)”: 0.863.
`AAUGUAUGCAUUCAUCCAACAGAGUUAUUUAUUGGCUGGAGAUGGAAAAUCACACCACCUGACAGGCCUUCUGGGCCUCCAAAGCCCAUCCUUGGGGUUCCCCCUCCCUG` — result for “RBNS enrichment (R)”: 0.46.
Under “RBNS enrichment (R)”, `GUGCCGCUUAUAGGCUGCACGCACCCCUUGCGGAUGUGCUAUCUGUGGGCAUUUCCUCCUCCUGUGAGCCUUGCAGCCCUUGUAUGGCGGCUUUGGUCUGGGCAGUGCAU` is recorded as 0.819.
`CCUUCUUCUCUCUCCUUUGGCGUUUGUUCCUGUAGUCACUGGGCUAAUCUCCCCCUAGCUUCAAGCUGUACAUAGGGCCUCCCAGUGCAAAUCCUCCUGCCCAUACCGUG`: “RBNS enrichment (R)” 0.809.
`AUAUAUAUAUAUUUAAAACGUUUCUUUUCUGUAUGAUGUGCAUGCAAGUUUACCGUAACUUUUCUUAAACUUUUUAGUGCCGUUUCUAGUAUAUUCCUGUAAAUGUCAGU`: “RBNS enrichment (R)” 48.6.
`GGCACAGGGAGCCACUGAGGGUCACCCUGCCUUCCUCCUUGCUGGCCCAGCUGCUGUUUAUUUAUGCUUUUUGGUCUGUUUGUUUGAUCUUUUGCUUUUUUAAAAUUGUU` — result for “RBNS enrichment (R)”: 2.65.

Series 2
Target: RING finger protein unkempt homolog, zinc fingers 1-6, GST-SBP tag (UNK, Homo sapiens, UniProt Q9C0B0, residues 30-357)
Technique: RNA Bind-n-Seq
Form: RNA
Sample: in vitro
Concentration: not given
Notes: RNA with constant flanks, human-mouse chimeric sites, ends assumed
Reference: input RNA pool
Direction: higher = stronger binding
All sequences stand within: GGGAGUUCUACAGUCCGACGAUC … CAACAGAGGAUUGAGCAUCA
Residues (chain): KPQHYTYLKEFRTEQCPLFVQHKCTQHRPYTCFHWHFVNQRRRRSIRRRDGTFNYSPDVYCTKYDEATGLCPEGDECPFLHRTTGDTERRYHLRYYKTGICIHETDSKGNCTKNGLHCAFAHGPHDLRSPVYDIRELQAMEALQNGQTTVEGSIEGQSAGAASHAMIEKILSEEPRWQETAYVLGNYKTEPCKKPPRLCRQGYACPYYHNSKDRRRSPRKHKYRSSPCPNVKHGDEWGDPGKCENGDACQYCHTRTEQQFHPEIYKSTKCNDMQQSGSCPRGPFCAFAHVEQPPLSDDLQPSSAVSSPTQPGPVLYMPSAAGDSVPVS
`AUCCCAAUUAUGGACACCGGUGAAAACCCAGAGGUUCCCUUCCCCCGGGACAUGAUUGACUUAGAGGCCAAUUUCGAGAAGAUUGAAAAUGAACUGAAGGAAAUCAACACAAACCAGGAA` gave a bound/input enrichment of 0.212 ratio.
`GUAAUGGACGUCAACACUGCUCUACAAGAGGUGCUGAAGACUGCCCUCAUCCACGAUGGCCUAGCACGUGGCAUACGCGAAGCUGCCAAAGCCUUAGACAAGCGCCAAGCCCAUCUUUGU` has a bound/input enrichment of 0.0909 ratio.
The bound/input enrichment of `UUGCUACUGACUCCCUGGGUCAAGUUCCUGUGGGAAUCUUACAGGCAGUGUUUGGACCUUCUUCGAAACAAUUCUAGAGUAGAGCGCCUGUACCAUGAUAUCGCCCAACAAGCUUUCAAA` is reported as 0.184 ratio.
The bound/input enrichment of `CAUGUAUCUGCAGUACUUGAUGUGGACUACUCUCCCACUGGGAAGGAGUUUGUGUCUGCCAGCUUUGAUAAGUCUAUUAGAAUCUUUCCUGUGGACAAGAGCCGAAGCAGGGAAGUGUAU` is reported as 0.437 ratio.
For `CUCAUGGCUGCAGAAACAGGAAGUGGCAAAACUGGUGCAUUUAGUAUUCCCGUUAUCCAGAUAGUGUAUGAAACUCUGAAAGACCAACAGGAAGGCAAGAAAGGGAAAACAACUAUUAAA`, the bound/input enrichment was 0.731 ratio.
For `GCAGGAUCUUCUAAGUACCAGUGGGACAUUAUGAAAUCCCUUGGCCUGUCUGAUGAAGACAUAGUGAAGUUUUCUGAAGCAGAGCACUGGCUUGAUUAUUUCCCACCACUGGCCGUUCAG`, the bound/input enrichment was 0.147 ratio.
`AUGGAGAAGGAUUCUCUGCCCCGCUUUGUGCGCUCUGAAUUUUAUAAGGAGCUAAUCAAGUAGUCAUUUAGCCAGGCUUCCAAAAGUUCCUGUGAGUGUUGAGUUACAUCCUUUGUAGCA` gave a bound/input enrichment of 0.82 ratio.
The bound/input enrichment of `GGAAGUACAAUGAUGGAGAUUGAUGGUGACAAAGGCAAGCAGGGCGGUCCCACCUACUACAUAGAUACCAAUGCCCUCCGCGUGCCCAGGGAGAACAUGGAGGCCAUCUCACCACUCAAG` is reported as 0.268 ratio.

Series 3
Target: Histone acetyltransferase KAT6A, winged helix 1, GST fusion (KAT6A, Homo sapiens, UniProt Q92794, residues 1-85)
Technique: protein binding microarray
Form: double-stranded DNA, one strand shown
Sample: in vitro
Concentration: not given
Notes: 8-mer, flanks averaged, mean of 2 arrays, mostly near background
Reference: not given
Direction: higher = stronger binding
Construct (chain): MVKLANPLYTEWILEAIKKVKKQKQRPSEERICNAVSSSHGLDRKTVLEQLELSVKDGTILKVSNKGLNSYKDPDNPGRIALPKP
With `CGGCTTCA` the E-score was 0.261.
For `AACTTATA`, the E-score was -0.15.
`AAAATCTC` gave an E-score of -0.182.
`AGTAGAGA` gave an E-score of -0.119.
`CCTTCCAC` gave an E-score of 0.0309.
For `AACGACTT`, the E-score was -0.136.
`AACTCGCA` gave an E-score of -0.258.
`CTTCCCCC` has an E-score of 0.0175.
For `GCAAGTGC`, the E-score was -0.0203.
For `CTGGGTGC`, the E-score was -0.106.
`GTTCGAAC` gave an E-score of -0.215.
`TGGAGCAA` has an E-score of -0.091.
`AACGCCAT` has an E-score of 0.056.
`ACGATGAG` has an E-score of 0.0459.
`GCCACTCC` gave an E-score of 0.053.
The E-score of `AACCTTGA` is reported as -0.175.
`GATACACC` has an E-score of 0.0527.
For `AAGTGGAA`, the E-score was -0.184.
The E-score of `GGATTCCA` is reported as -0.037.
For `AGTGGAAT`, the E-score was -0.136.
`AACCACCA` gave an E-score of -0.162.
`AAACAACA` gave an E-score of -0.231.
`AGAGGCAG` has an E-score of -0.241.
`ACATAGGG` has an E-score of -0.0383.
With `CAACGTAA` the E-score was -0.166.

Series 4
Target: CCNE2, cyclin fold, Cln2 fusion (human)
Technique: yeast growth competition, sequencing
Sample: yeast
Notes: strong parent motif
Reference: not given
Direction: higher = stronger binding
Starting sequence: E2F1 docking peptide (human); PPVKRRLDLETDH; partner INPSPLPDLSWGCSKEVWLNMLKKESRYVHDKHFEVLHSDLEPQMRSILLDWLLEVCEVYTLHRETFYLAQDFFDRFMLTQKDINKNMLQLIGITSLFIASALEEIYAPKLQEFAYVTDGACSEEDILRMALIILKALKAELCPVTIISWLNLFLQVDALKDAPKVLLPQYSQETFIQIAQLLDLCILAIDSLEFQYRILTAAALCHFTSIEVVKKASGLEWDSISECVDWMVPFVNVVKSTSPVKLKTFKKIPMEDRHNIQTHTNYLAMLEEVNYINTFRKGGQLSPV
`PPVKRRLDLETIH [D12I]`: “normalised enrichment score” 1.68.
For `PPVKRRLDLEHDH [T11H]`, “normalised enrichment score” read 1.18.
`PPVKRLLDLETDH [R6L]` — result for “normalised enrichment score”: 0.358.
`PLVKRRLDLETDH [P2L]`: “normalised enrichment score” -0.152.
Under “normalised enrichment score”, `PPVKMRLDLETDH [R5M]` is recorded as 0.388.
For `PPVKRRLDLESDH [T11S]`, “normalised enrichment score” read 1.71.
`PPVKVRLDLETDH [R5V]` — result for “normalised enrichment score”: -0.0971.
Under “normalised enrichment score”, `PPVKFRLDLETDH [R5F]` is recorded as 0.108.
`PPEKRRLDLETDH [V3E]`: “normalised enrichment score” -0.077.
`PPVKRRLDLETDD [H13D]`: “normalised enrichment score” 1.3.
`PPVKRRLDLETDT [H13T]`: “normalised enrichment score” 1.82.
Under “normalised enrichment score”, `PPVKRRLALETDH [D8A]` is recorded as 1.01.
`PPVKRRLDLSTDH [E10S]`: “normalised enrichment score” 1.18.
Under “normalised enrichment score”, `PRVKRRLDLETDH [P2R]` is recorded as 0.976.
`FPVKRRLDLETDH [P1F]` — result for “normalised enrichment score”: 2.05.
`PPVKRRLNLETDH [D8N]` — result for “normalised enrichment score”: 2.06.
For `PPVKRRLELETDH [D8E]`, “normalised enrichment score” read 0.627.
`PPVKRRLDLEEDH [T11E]` — result for “normalised enrichment score”: 0.615.
`PPVKARADLETDH [R5A L7A]`: “normalised enrichment score” -0.202.
`PPVKRRLDLETDM [H13M]`: “normalised enrichment score” 1.57.
For `PPVKYRLDLETDH [R5Y]`, “normalised enrichment score” read 0.266.
For `NPVKRRLDLETDH [P1N]`, “normalised enrichment score” read 1.2.
`PPVKRRLDLEVDH [T11V]` — result for “normalised enrichment score”: 1.4.

Some of these lines once more (series 1):
Under “RBNS enrichment (R)”, `GUGCCGCUUAUAGGCUGCACGCACCCCUUGCGGAUGUGCUAUCUGUGGGCAUUUCCUCCUCCUGUGAGCCUUGCAGCCCUUGUAUGGCGGCUUUGGUCUGGGCAGUGCAU` is recorded as 0.819.
`UCAAACCCCGACCACCUGCCCAACCUGCUCUCCUCUUGCCACUGCCUCUUCCUCCCUCAUUCCACCUUCCCAUGCCCUGGAUCCAUCAGGCCACUUGAUGACCCCCAACC` — result for “RBNS enrichment (R)”: 0.863.
Under “RBNS enrichment (R)”, `AACAUCAGGAAGUUAAUUUGGCUGGCAAAAUUCUAGGGAAACUUGGCCAGAAAACUGGUGUUGAAGGCUUUUGCUCAUAUAAACAAGUGCCAUUGAGUUUCAAAUGACCA` is recorded as 0.362.
`AAUGUAUGCAUUCAUCCAACAGAGUUAUUUAUUGGCUGGAGAUGGAAAAUCACACCACCUGACAGGCCUUCUGGGCCUCCAAAGCCCAUCCUUGGGGUUCCCCCUCCCUG` — result for “RBNS enrichment (R)”: 0.46.
For `CCUGGUGACGGGUGUCCAAGAAGCGGUUUCCUUGGGAGCUUCUGCCUCCGUGGGCCUCUCAGCCCGCCCCGUGUGGCCGCCCGGGUGUGGCUCAGCCAUGUCCCCUCCCC`, “RBNS enrichment (R)” read 0.254.
`GGCACAGGGAGCCACUGAGGGUCACCCUGCCUUCCUCCUUGCUGGCCCAGCUGCUGUUUAUUUAUGCUUUUUGGUCUGUUUGUUUGAUCUUUUGCUUUUUUAAAAUUGUU` — result for “RBNS enrichment (R)”: 2.65.
